Experimental data gathered from unrelated publications.
Lines come from different studies, so protocols differ. ± marks the error that the study gave. ≈ marks a conversion by molar mass, not a printed value.
Organism: Escherichia coli

Compound = O=C(O)[C@@H]1Cc2c([nH]c3ccccc23)[C@@H](c2ccc(C(F)(F)F)cc2C(F)(F)F)N1; test system = BL21(DE3); conditions = 250 µM, 18 h; measurement = growth inhibition; value = 0%
Compound = CC[C@H](C)[C@H](NC(=O)[C@H](CCCCN)NC(=O)[C@H](CCCCN)NC(=O)[C@H](CC(C)C)NC(=O)[C@H](CCCCN)NC(=O)[C@H](CCC(=O)O)NC(=O)[C@H](CCCCN)NC(=O)[C@@H](NC(=O)[C@H](CCCCN)NC(=O)[C@H](CC(N)=O)NC(=O)[C@H](CCCNC(=N)N)NC(=O)[C@H](Cc1ccccc1)NC(=O)[C@H](CCCCN)NC(=O)[C@H](CCCNC(=N)N)NC(=O)[C@H](CC(C)C)NC(=O)[C@H](CCCNC(=N)N)NC(=O)[C@H](CCCCN)NC(=O)[C@H](CCCNC(=N)N)NC(=O)[C@H](CC(C)C)NC(=O)[C@@H](N)CC(C)C)[C@@H](C)CC)C(=O)NCC(=O)N[C@@H](CCC(N)=O)C(=O)N[C@@H](CCCCN)C(=O)N[C@H](C(=O)N[C@@H](CCC(N)=O)C(=O)NCC(=O)N[C@@H](Cc1ccccc1)C(=O)N[C@H](C(=O)N1CCC[C@H]1C(=O)N[C@@H](CCCCN)C(=O)N[C@@H](CC(C)C)C(=O)N[C@H](C(=O)N1CCC[C@H]1C(=O)N[C@@H](CCCNC(=N)N)C(=O)N[C@H](C(=O)N[C@@H](CCC(=O)O)C(=O)N[C@@H](CO)C(=O)O)[C@@H](C)O)C(C)C)C(C)C)[C@@H](C)CC; test = inhibition zone; test system = ATCC 25922; measurement = lethal concentration; value = 2.07 µM
Compound = CNC(=O)c1cccc(-c2ccc(O[C@H]3O[C@H](CO)[C@@H](O)[C@H](O)[C@@H]3O)cc2)c1; test = biofilm formation, inhibitor; test system = uropathogenic UTI89; measurement = IC50; value = 1.35 µM
Compound = CCCCCCCCCCCCCCCCC(=O)N[C@@H](CCCCN)C(=O)N[C@@H](CCCCN)C(=O)N[C@@H](CCCCN)C(=O)N[C@@H](CCCCN)C(=O)N[C@@H](CCCCN)C(N)=O; test system = K12; measurement = MBC; value = 16 µg/mL (≈ 17.6 µM)
Compound = CCCC(=O)NCC(=O)N[C@@H](CC(C)C)C(=O)N[C@@H](CC(C)C)C(=O)N[C@@H](CCCCN)C(=O)N[C@@H](CCCNC(=N)N)C(=O)N[C@H](C(=O)N[C@@H](CCCCN)C(=O)N[C@H](C(=O)N[C@@H](CC(C)C)C(=O)N[C@@H](CC(C)C)C(=O)NCCCC[C@H](NC(=O)[C@H](CC(C)C)NC(=O)[C@H](CC(C)C)NC(=O)[C@@H](NC(=O)[C@H](CCCCN)NC(=O)[C@@H](NC(=O)[C@H](CCCNC(=N)N)NC(=O)[C@H](CCCCN)NC(=O)[C@H](CC(C)C)NC(=O)[C@H](CC(C)C)NC(=O)CNC(=O)CCC)[C@@H](C)CC)[C@@H](C)O)C(N)=O)[C@@H](C)O)[C@@H](C)CC; test = checkerboard; test system = ATCC 25922; conditions = with: gentamicin; measurement = FIC index; value = 0.5
Compound = CC[C@H](C)[C@H](N)C(=O)N[C@@H](CC(C)C)C(=O)N[C@@H](CO)C(=O)N[C@@H](C)C(=O)N[C@H](C(=O)N[C@@H](Cc1c[nH]c2ccccc12)C(=O)N[C@@H](CO)C(=O)NCC(=O)N[C@H](C(=O)N[C@@H](CCCCN)C(=O)N[C@@H](CO)C(=O)N[C@@H](CC(C)C)C(=O)N[C@@H](Cc1ccccc1)C(N)=O)[C@@H](C)CC)[C@@H](C)CC; test system = pb3; measurement = growth inhibitory concentration; value = 40 µM
Compound = NCCCC[C@H](NC(=O)[C@H](CCCCN)NC(=O)[C@H](Cc1ccccc1)NC(=O)[C@@H]1CCCN1C(=O)[C@H](Cc1c[nH]c2ccccc12)NC(=O)[C@H](Cc1c[nH]c2ccccc12)NC(=O)[C@H](Cc1c[nH]c2ccccc12)NC(=O)[C@@H]1CCCN1C(=O)[C@H](Cc1ccccc1)NC(=O)[C@H](CCCCN)NC(=O)[C@@H](N)CCCCN)C(N)=O; test system = ATCC 8937, RPMI medium; conditions = 24 h, 37 °C; measurement = LC99.9; value = 15 µM
Compound = CC[C@H](C)[C@H](NC(=O)[C@H](CCCCN)NC(=O)[C@H](CCCCN)NC(=O)[C@H](CC(C)C)NC(=O)[C@H](CCCCN)NC(=O)[C@H](CCC(=O)O)NC(=O)[C@H](CCCCN)NC(=O)[C@@H](NC(=O)[C@H](CCCCN)NC(=O)[C@H](CC(N)=O)NC(=O)[C@H](CCCNC(=N)N)NC(=O)[C@H](Cc1ccccc1)NC(=O)[C@H](CCCCN)NC(=O)[C@H](CCCNC(=N)N)NC(=O)[C@H](CC(C)C)NC(=O)[C@H](CCCNC(=N)N)NC(=O)[C@H](CCCCN)NC(=O)[C@H](CCCNC(=N)N)NC(=O)[C@H](CC(C)C)NC(=O)CN)[C@@H](C)CC)C(=O)NCC(=O)N[C@@H](CCC(N)=O)C(=O)N[C@@H](CCCCN)C(=O)N[C@H](C(=O)N[C@@H](CCC(N)=O)C(=O)NCC(=O)N[C@@H](Cc1ccccc1)C(=O)N[C@H](C(=O)N1CCC[C@H]1C(=O)N[C@@H](CCCCN)C(=O)N[C@@H](CC(C)C)C(=O)N[C@@H](C)C(=O)N1CCC[C@H]1C(=O)N[C@@H](CCCNC(=N)N)C(=O)N[C@H](C(=O)N[C@@H](CC(=O)O)C(=O)N[C@@H](Cc1ccc(O)cc1)C(=O)O)[C@@H](C)O)C(C)C)[C@@H](C)CC; test = inhibition zone; test system = Am. J16c; measurement = lethal concentration; value = 1.67 µM
Compound = CN1CC(=O)N=C1N.C[C@H](CCC(=O)O)[C@H]1CC[C@H]2[C@@H]3[C@H](O)C[C@@H]4C[C@H](O)CC[C@]4(C)[C@H]3CC[C@]12C; test system = TISTR 117; conditions = 1 mg per disc, 18 to 24 h, 37 °C, 6 mm disc; measurement = inhibition zone diameter; value = 7.3 ± 0.2 mm
Compound = CC[C@H](C)[C@H](NC(=O)[C@H](CO)NC(=O)[C@H](CO)NC(=O)[C@H](Cc1ccccc1)NC(=O)CN)C(=O)N[C@@H](Cc1ccccc1)C(=O)N[C@@H](CCCNC(=N)N)C(=O)NCC(=O)N[C@H](C(=O)N[C@@H](C)C(=O)N[C@@H](CCCCN)C(=O)N[C@@H](Cc1ccccc1)C(=O)N[C@@H](C)C(=O)N[C@@H](CO)C(=O)N[C@@H](CCCCN)C(N)=O)C(C)C; test system = ATCC 8739; conditions = MIC; measurement = time to complete killing; value = ≤ 20 min
Compound = CCCCCCCCCCCCCCCC(=O)N[C@@H](CCCCN)C(=O)N[C@@H](CCCCN)C(=O)N[C@@H](CCCCN)C(=O)N[C@@H](CCCCN)C(=O)N[C@@H](Cc1c[nH]cn1)C(N)=O; test system = K12; measurement = MBC; value = 128 µg/mL (≈ 141 µM)
Compound = CCCCCCCCCC(=O)NCC(=O)N[C@@H](CC(C)C)C(=O)N[C@@H](CC(C)C)C(=O)N[C@@H](CCCCN)C(=O)N[C@@H](CCCNC(=N)N)C(=O)N[C@H](C(=O)N[C@@H](CCCCN)C(=O)N[C@H](C(=O)N[C@@H](CC(C)C)C(=O)N[C@@H](CC(C)C)C(N)=O)[C@@H](C)O)[C@@H](C)CC; test = checkerboard; test system = ATCC 25922; conditions = with: rifampicin; measurement = FIC index; value = 0.5
Compound = CC[C@H](C)[C@@H]1NC(=O)[C@H](CCCCN)NC(=O)[C@@H](NC(=O)[C@H](C)NC(=O)[C@@H](NC(=O)[C@H](CC(C)C)NC(=O)[C@H](CC(N)=O)NC(=O)[C@@H](NC(=O)CNC(=O)[C@H](CC(C)C)NC(=O)[C@H](CCCNC(=N)N)NC(=O)[C@H](C)NC(=O)[C@H](CC(C)C)NC(=O)[C@H](CC(=O)O)NC(=O)[C@H](CCCCN)NC(=O)CNC(=O)[C@H](CC(C)C)NC(=O)CNC(=O)[C@H](CCCCN)NC(=O)[C@H](CO)NC(=O)[C@H](C)NC(=O)[C@H](Cc2ccccc2)NC(=O)[C@H](CCCCN)NC(=O)[C@H](C)NC(=O)[C@@H](NC(=O)CNC(=O)[C@H](CCCNC(=N)N)NC(=O)[C@H](Cc2ccccc2)NC(=O)[C@@H](NC(=O)[C@H](CO)NC(=O)[C@H](CO)NC(=O)[C@H](Cc2ccccc2)NC(=O)CN)[C@@H](C)CC)C(C)C)C(C)C)C(C)C)CSSC[C@@H](C(=O)O)NC(=O)[C@H](CCC(N)=O)NC(=O)[C@H](CCCCN)NC(=O)[C@H](CO)NC1=O; test system = ATCC 8739; conditions = MIC; measurement = time to complete killing; value = 30 min
Compound = CC[C@H](C)[C@H](NC(=O)[C@H](CCCCN)NC(=O)[C@H](CCCCN)NC(=O)[C@H](CC(C)C)NC(=O)[C@H](CCCCN)NC(=O)[C@H](CCC(=O)O)NC(=O)[C@H](CCCCN)NC(=O)[C@@H](NC(=O)[C@H](CCCCN)NC(=O)[C@H](CC(N)=O)NC(=O)[C@H](CCCNC(=N)N)NC(=O)[C@H](Cc1ccccc1)NC(=O)[C@H](CCCCN)NC(=O)[C@H](CCCNC(=N)N)NC(=O)[C@H](CC(C)C)NC(=O)[C@H](CCCNC(=N)N)NC(=O)[C@H](CCCCN)NC(=O)[C@H](CCCNC(=N)N)NC(=O)[C@@H](N)CC(C)C)[C@@H](C)CC)C(=O)NCC(=O)N[C@@H](CCC(N)=O)C(=O)N[C@@H](CCCCN)C(=O)N[C@H](C(=O)N[C@@H](CCC(N)=O)C(=O)NCC(=O)N[C@@H](Cc1ccccc1)C(=O)N[C@H](C(=O)N1CCC[C@H]1C(=O)N[C@@H](CCCCN)C(=O)N[C@@H](CC(C)C)C(=O)O)C(C)C)[C@@H](C)CC; test = inhibition zone; test system = JM109; measurement = lethal concentration; value = 1.5 µM
Compound = CC[C@H](C)[C@H](NC(=O)[C@H](CCCNC(=N)N)NC(=O)[C@H](CCCCN)NC(=O)[C@H](CC(C)C)NC(=O)[C@H](CC(C)C)NC(=O)CN)C(=O)N[C@@H](CCCCN)C(=O)N[C@H](C(=O)N[C@@H](CC(C)C)C(=O)N[C@@H](CC(C)C)C(=O)NCCCC[C@H](NC(=O)[C@H](CCCCNC(=O)[C@H](CC(C)C)NC(=O)[C@H](CC(C)C)NC(=O)[C@@H](NC(=O)[C@H](CCCCN)NC(=O)[C@@H](NC(=O)[C@H](CCCNC(=N)N)NC(=O)[C@H](CCCCN)NC(=O)[C@H](CC(C)C)NC(=O)[C@H](CC(C)C)NC(=O)CN)[C@@H](C)CC)[C@@H](C)O)NC(=O)[C@H](CC(C)C)NC(=O)[C@H](CC(C)C)NC(=O)[C@@H](NC(=O)[C@H](CCCCN)NC(=O)[C@@H](NC(=O)[C@H](CCCNC(=N)N)NC(=O)[C@H](CCCCN)NC(=O)[C@H](CC(C)C)NC(=O)[C@H](CC(C)C)NC(=O)CN)[C@@H](C)CC)[C@@H](C)O)C(N)=O)[C@@H](C)O; test = checkerboard; test system = ATCC 25922; conditions = with: rifampicin; measurement = FIC index; value = 0.312
Compound = CCCCCCCCCCCCCC(=O)N[C@H](CCN)C(=O)N[C@@H]1C(=O)N[C@@H](CCN)C(=O)N[C@@H](CC(C)C)C(=O)N[C@@H](CCN)C(=O)N[C@H](Cc2ccccc2)C(=O)N[C@@H](CC(C)C)C(=O)N[C@@H](CCN)C(=O)N[C@H](CCN)C(=O)N[C@@H](C(C)C)C(=O)N[C@@H](CC(=O)O)C(=O)O[C@@H]1C; test system = MG1655-mcr-1, colistin-resistant, neutropenic mice, thigh infection; conditions = subcutaneous, 20 mg/kg once daily; scale = reference: vehicle; measurement = reduction in bacterial burden; value = 3.42 log10 CFU
